Values quoted from earlier work as cited in several papers.
Compare with care: the assays were run in different laboratories. ± gives the spread as reported.

SMILES | target | assay | test system | setting | IC50 [µM]
FC(F)(F)c1ccc(CNc2ccc(Cc3c[nH]c4ncc(Cl)cc34)cn2)cn1 | CYP2C19 |  |  |  | 9.3
CCCc1nc2c(C)cc(-c3nc4ccccc4n3C)cc2n1Cc1ccc(-c2ccccc2C(=O)O)cc1 | P-glycoprotein | digoxin efflux, inhibitor | Caco-2 | pH 7.4, together with: digoxin | 2.2
O=C(O)c1ccnc(N2CC(O)(c3ccc(OCc4c(-c5c(Cl)cccc5Cl)noc4C4CC4)cc3Cl)C2)c1 | CYP2C9 | inhibitor |  |  | 13.6
CN1CCN(c2ccc(Nc3ncc4cc5n(c4n3)C3(CCCCC3)CNC5=O)nc2)CC1 | OCT2 | transport, inhibitor |  |  | 0.152
C[C@@H](c1nc(-c2ccc(C#N)cc2)cs1)[C@](O)(Cn1cncn1)c1cc(F)ccc1F | CYP2D6 | enzyme activity, inhibitor |  | together with: bufuralol 1'-hydroxylation | 4.82
O=c1oc2cc(O)ccc2c2oc3cc(O)ccc3c12 | PXR | target gene upregulation, antagonist |  | transient transfection | 11
C[C@@H]1O[C@@H](OC[C@H]2O[C@@H](Oc3c(-c4ccc(O)c(O)c4)oc4cc(O)cc(O)c4c3=O)[C@H](O)[C@@H](O)[C@@H]2O)[C@H](O)[C@H](O)[C@H]1O | OATP1B3 | transport, inhibitor |  | not reached, top 150 µM | > 150
C#Cc1ccc2ccccc2c1 | cytochrome P450 2A13 | coumarin 7-hydroxylation, inhibitor |  |  | 1.8
C[C@@H](c1nc(-c2ccc(C#N)cc2)cs1)[C@](O)(Cn1cncn1)c1cc(F)ccc1F | UGT1A1 human | inhibitor | human liver microsomes | together with: 17β-estradiol | 9
COc1cc2c(cc1OC)CN(CCc1ccc(NC(=O)c3cc(OC)c(OC)cc3NC(=O)c3cnc4ccccc4c3)cc1)CC2 | P-glycoprotein | inhibitor |  | in vivo | 1.05
CNC(=O)c1cc2c(Oc3ccc(NC(=S)NC(=O)Cc4ccccc4)cc3F)ccnc2cc1OC | CYP3A, human | enzyme activity, reversible inhibitor |  | together with: testosterone | 3.05
CO[C@H]1C[C@@H]2CC[C@@H](C)[C@@](O)(O2)C(=O)C(=O)N2CCCC[C@H]2C(=O)O[C@H]([C@H](C)C[C@@H]2CC[C@@H](OCCO)[C@H](OC)C2)CC(=O)[C@H](C)/C=C(\C)[C@@H](O)[C@@H](OC)C(=O)[C@H](C)C[C@H](C)/C=C/C=C/C=C/1C | human OATP1B1 | rosuvastatin uptake, inhibitor | OATP1B1-expressing cells | co-incubation, together with: rosuvastatin | 1.58 ± 0.92
O=C(/C=C/C=C/c1ccc2c(c1)OCO2)N1CCCCC1 | MDR1 (P-glycoprotein), human | efflux transport, inhibitor | Caco-2 | together with: digoxin substrate | 15.5
Cc1nc(C(=O)NCC(=O)O)c(O)c2ccc(Oc3ccccc3)cc12 | BCRP | transport activity, inhibitor |  |  | 3.05
Nc1nc2cccc(-c3ccc(CN4CCS(=O)(=O)CC4)cc3)n2n1 | OATP1B3 | inhibitor |  |  | > 473
CN(C)CC=CC(=O)Nc1cc2c(Nc3ccc(F)c(Cl)c3)ncnc2cc1O[C@H]1CCOC1 | OATP1B1 | transport, inhibitor | HEK293 | together with: estradiol 17β-glucuronide | > 70
C[C@@H](c1nc(-c2ccc(C#N)cc2)cs1)[C@](O)(Cn1cncn1)c1cc(F)ccc1F | OCT1 | substrate transport |  | together with: [14C]tetraethylammonium | 3.74

For quick reference, copied from above:
SMILES | target | assay | test system | setting | IC50 [µM]
O=c1oc2cc(O)ccc2c2oc3cc(O)ccc3c12 | PXR | target gene upregulation, antagonist |  | transient transfection | 11
C[C@@H]1O[C@@H](OC[C@H]2O[C@@H](Oc3c(-c4ccc(O)c(O)c4)oc4cc(O)cc(O)c4c3=O)[C@H](O)[C@@H](O)[C@@H]2O)[C@H](O)[C@H](O)[C@H]1O | OATP1B3 | transport, inhibitor |  | not reached, top 150 µM | > 150
